{"data": "Experimental data gathered from unrelated publications", "note": "Compare with care: the assays were run in different laboratories. Values joined by “and” are separate records of one study, mostly repeats; a detail may differ. Numbers after ± are the reported error."}
{"Compound": "NC[C@@H](C(=O)Nc1ccc(-c2cn[nH]c2)cc1)c1ccccc1", "system": "rabbit plasma", "unbound fraction": 0.097}
{"Compound": "COc1cc(CC(O)C(=O)O)ccc1O (centres unmarked)", "test": "ultrafiltration", "system": "rat plasma", "unbound fraction": 0.83}
{"Compound": "COc1ccc(Nc2nccc(-c3c[nH]nc3-c3cccnc3)n2)cc1", "system": "human plasma", "conditions": "10 µM", "unbound fraction": 0.15}
{"Compound": "Cc1ccc(NC(=O)N2CCCN3CCC(c4ccc(C#CC5CCCC5O)cc4)C3C2)cc1 (centres unmarked)", "test": "equilibrium dialysis", "system": "CD-1 mouse plasma", "conditions": "2 µM", "unbound fraction": 0.0053}
{"Compound": "CC(C)C[C@@H]1NC(=O)CNC(=O)[C@H](CC(N)=O)NC(=O)[C@H](CCCNC(=N)N)NC(=O)[C@H]([C@@H](C)O)NC(=O)[C@@H]2CSSC[C@@H]3NC(=O)[C@H]([C@@H](C)O)NC(=O)CNC(=O)CNC(=O)[C@H](C(C)C)NC(=O)[C@@H]4CSSC[C@H](NC(=O)[C@H]([C@@H](C)O)NC(=O)[C@H](CSSC[C@H](NC(=O)[C@H](C(C)C)NC(=O)[C@@H]5CCCN5C1=O)C(=O)NCC(=O)N[C@@H](CCC(=O)O)C(=O)N[C@@H]([C@@H](C)O)C(=O)N4)NC(=O)CNC(=O)[C@@H]1CCCN1C(=O)[C@H]([C@@H](C)O)NC(=O)[C@H](CC(N)=O)NC3=O)C(=O)N[C@@H](CO)C(=O)N[C@@H](Cc1c[nH]c3ccccc13)C(=O)N1CCC[C@H]1C(=O)N[C@@H](C(C)C)C(=O)N2", "test": "equilibrium dialysis", "system": "rat brain homogenate", "conditions": "1 µM, 24 h, 37 °C", "unbound fraction": "0.13 ± 0.08"}
{"Compound": "C=C(C)C(=O)Nc1ccc(-c2c(-c3ccc(Oc4nccc(C)n4)cc3)c3c(N)ncnc3n2C)cc1", "system": "human plasma", "conditions": "5 µM, 18 h", "unbound fraction": 0.0013}
{"Compound": "COc1ccc(NC(=O)N2CCCN3CCC(c4ccc(C#Cc5ccccc5)cc4)C3C2)cc1 (centres unmarked)", "test": "equilibrium dialysis", "system": "CD-1 mouse plasma", "conditions": "2 µM", "unbound fraction": "< 0.0001"}
{"Compound": "Nc1ccc(-c2ccc(F)cc2)cc1NC(=O)N1Cc2ccccc2C1", "system": "brain tissue", "unbound fraction": 0.02}
{"Compound": "Cc1ccc(NC(=O)N2CCCN3CCC(c4ccc(C#CC5(O)CCCCC5)cc4)C3C2)cc1 (centres unmarked)", "test": "equilibrium dialysis", "system": "CD-1 mouse plasma", "conditions": "2 µM", "unbound fraction": 0.0019}
{"Compound": "CC(C)Cn1c(SCC(=O)N2CCc3ccccc3C2)nc2cc(Cl)ccc2c1=O", "test": "equilibrium dialysis", "system": "rat brain homogenate", "unbound fraction": "0%"}
{"Compound": "CN1C(=O)C2(Nc3ccccc3C(=O)N2Cc2ccccc2)c2cc(Br)ccc21 (centres unmarked)", "system": "human plasma", "unbound fraction": "0.019 ± 0.005"}
{"Compound": "Nc1ccc(-c2ccc(F)cc2)cc1NC(=O)N1CC2(COC2)C1", "system": "brain tissue", "unbound fraction": 0.22}
{"Compound": "CN1C(=O)[C@@H](Cc2ccc(O)c(I)c2)NC(=O)CNC(=O)[C@H](Cc2ccc3ccccc3c2)NC(=O)[C@H](CCCNC(=N)N)NC(=O)[C@H]1CCCNC(=O)c1ccc(CNC(=O)CN2CCN(CC(=O)O)CCN(CC(=O)O)CCN(CC(=O)O)CC2)cc1 [lutetium-177 labelled]", "test": "ultrafiltration", "system": "human plasma", "conditions": "15 min at room temperature", "unbound fraction": 0.032}
{"Compound": "Nc1ccc(-c2ccncc2)cc1NC(=O)N1Cc2ccccc2C1", "system": "brain tissue", "unbound fraction": 0.23}
{"Compound": "O=C(c1ccccc1)c1cc(O)c(-c2cc(Cl)cc(Cl)c2)c(O)c1", "test": "equilibrium dialysis", "system": "rat plasma", "conditions": "2 µg/mL, pH 7.4, 37 °C", "unbound fraction": 0.0016}
{"Compound": "COc1ccc(-c2csc(N/N=C(\\C)c3cc(O)cc(O)c3)n2)cc1", "test": "equilibrium dialysis", "system": "human plasma, male", "conditions": "3 µM, 5 h, pH 7.4", "unbound fraction": "0% and 0.1% and 0.04% and 0.59%"}
{"Compound": "O=C(O)C(O)Cc1ccc(O)c(O)c1 (centres unmarked)", "test": "ultrafiltration", "system": "rat plasma", "unbound fraction": 0.98}
{"note": "A few entries again:"}
{"Compound": "Cc1ccc(NC(=O)N2CCCN3CCC(c4ccc(C#CC5(O)CCCCC5)cc4)C3C2)cc1 (centres unmarked)", "test": "equilibrium dialysis", "system": "CD-1 mouse plasma", "conditions": "2 µM", "unbound fraction": 0.0019}
